Measurements from different studies.
Parts stem from different laboratories: compare values within a part only.

Study 1 — technique: RNA Bind-n-Seq; form: RNA; medium: in vitro; tested at: 200 nM; setting: whole 134-nt RNA, ends assumed; together with: 150 mM KCl; reference: input library; reading: higher = stronger binding
Target: Ras GTPase-activating protein-binding protein 1, full length (G3BP1, Homo sapiens, UniProt Q13283)
Chain of UniProt Q13283 (whole entry, looked up): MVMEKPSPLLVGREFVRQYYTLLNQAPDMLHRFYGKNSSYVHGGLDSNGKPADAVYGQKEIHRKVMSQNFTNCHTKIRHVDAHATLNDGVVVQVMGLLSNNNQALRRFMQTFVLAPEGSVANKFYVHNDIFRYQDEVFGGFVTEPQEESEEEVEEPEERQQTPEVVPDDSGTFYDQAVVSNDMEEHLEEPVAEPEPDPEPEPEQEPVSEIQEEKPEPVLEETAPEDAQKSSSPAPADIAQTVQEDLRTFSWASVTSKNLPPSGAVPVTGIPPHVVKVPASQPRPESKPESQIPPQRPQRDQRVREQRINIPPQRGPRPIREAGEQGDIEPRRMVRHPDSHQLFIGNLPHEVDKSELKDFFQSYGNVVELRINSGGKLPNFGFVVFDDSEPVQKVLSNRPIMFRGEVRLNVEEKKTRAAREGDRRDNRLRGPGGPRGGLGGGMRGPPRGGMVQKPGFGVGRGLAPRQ
All sequences stand within: GGGAGUUCUACAGUCCGACGAUC … UGGAAUUCUCGGGUGUCAAGG
Sequence	log2 enrichment
UAACUUUAGAGGAGGAUCUGAUGGAUAUGGCAGUGGACGUGGAUUUGGGGAUGGCUAUAAUGGGUAUGGAGGAGGACCUGGAGGUGGCCA	0.289
GCAGGAAGUAAAAACAAAUGGAAAUGCUUCGGAUAGUGGCAGGGGUGGGGGUUGCUAAGGAAAGGGUGGGAUGGGAGUGGGUAAAAAGUU	0.381
AAGUCCUGUGCUACACAUCGUAUGUACCGAAUCGGGGUUUGGGGUUUGGGGUGGGGAAAGUAUUAUGUUACGCCGUUCGGAUCUGCACUU	0.779
CUCAAGUCCUGUGCUACACAUCGUAUGUACCGAAUCGGUUUUUGGAAAGGUGGAAAGUAUUAUGUUACGCCGUUCGGAUCUGCACUUCCA	-0.489
CCUGUGCUACACAUCGUAUGUACCGAAUCGGGAAAAAAGGGGAAAAAAGGGGAAAAAAGGGAAAGUAUUAUGUUACGCCGUUCGGAUCUG	-0.406
CCUGUGCUACACAUCGUAUGUACCGAAUCGGGUUUUUGGGAAAAAAAGGGUUUUUUUGGGAAAGUAUUAUGUUACGCCGUUCGGAUCUGC	-0.954
UCCUGUGCUACACAUCGUAUGUACCGAAUCAAAUUUUUUUAAAUUUUUAAAUUUUUAAAAAAGUAUUAUGUUACGCCGUUCGGAUCUGCA	-0.734
AGUCCUGUGCUACACAUCGUAUGUACCGAAUCGGGGAAAAGGGGAAAAGGGAAAAGGGAAAGUAUUAUGUUACGCCGUUCGGAUCUGCAC	0.225

Study 2 — technique: protein binding microarray; form: double-stranded DNA, one strand shown; medium: in vitro; tested at: not given; reference: not given; reading: higher = stronger binding
Target: Histone acetyltransferase KAT6A, winged helix 1, GST fusion (KAT6A, Homo sapiens, UniProt Q92794, residues 1-85)
Setting: 8-mer, flanks averaged, mean of 2 arrays, mostly near background
Target sequence (chain): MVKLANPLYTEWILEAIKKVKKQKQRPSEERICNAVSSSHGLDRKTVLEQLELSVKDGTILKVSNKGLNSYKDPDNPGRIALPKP
Sequence	E-score
CATGACCG	0.127
AGGTCCAG	-0.164
AACGGCAC	0.213
CAGCAATC	-0.134
AGATGTGA	-0.142
GTTTCGAA	0.0622
GCACGTCA	-0.041
ACAACGGC	0.317
GCAACCGA	-0.0916
CTGTTCCA	-0.259
AAGAGCGA	0.0169
ATCTCAGC	-0.00764
AAGGTCGC	0.169
GCCGTCAC	0.397
AACCCGCC	0.402

Study 3 — technique: RNA Bind-n-Seq; form: RNA; medium: in vitro; tested at: 365 nM; reference: no-protein control; reading: higher = stronger binding
Target: RNA binding protein fox-1 homolog 2, RRM domain, GST-SBP tag (RBFOX2, Homo sapiens, UniProt O43251-10, residues 100-194)
Setting: natural RNA segment, single round, ends assumed
All sequences stand within: GGGAGUUCUACAGUCCGACGAUC … UGGAAUUCUCGGGUGCCAA
Target sequence (chain): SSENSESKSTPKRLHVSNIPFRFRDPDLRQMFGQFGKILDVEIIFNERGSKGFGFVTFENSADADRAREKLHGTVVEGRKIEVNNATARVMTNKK
Sequence	RBNS enrichment (R)
UAAAACCCAAUACUUUUGUCCAAUGUGGUUGGUCAAAUCAACUGAAUAAAUUCAGUAUUUUGCCUUAGUUGUUGUGAAGCCUGUGAUUCUCAGCUGGGACUGAGGAUGGG	0.83
CUGUGUAUAAAAUUUACUGGCCUUCUUCACUUACCUGCUCUAGUAUCGUAUCGUGUGUGCGUGCGUGUGUGACGUCAGGCUGCCACGUAAACUUCAGAGAAGAACCUUAA	0.619
GGAAAAUGCUCAAGGAUUUGAAGGGGUGGAUUAGCACCCUGUGCCUCGGGGGUGGUUGUUCUUCAAGCAAGUUCUGCUUGCACUUUUGCAUUUGCCUAACAGACUUUUGC	0.595
CUGAGGCAUGGAGAGCAGAUUCAGGGUGUGUGUGUGUGUGUGUGUGUGUGUAUGUGCGUGUGCGUGCACAUGUGUGCCUGCGUGUUGGUAUAGGACUUUAAAGCUCCUUU	1.86
GGUACUUUCUCUGUCCUCUCAACUGAGGACAGUGACUAGUUAAUCUUGACAUAAUUGCAUUUGGCUUGUCAUGUGCCUGGCAUUAAAAACAAUAUUGAGUUCACAUAAUA	1.1
CUGUCUCCAUACCUUCCUCUCCUAGUCCUUUUCUUCCACCCAGGCUUCAUAGCUCCGCCCCAGUUGUGGCAGGAGACAUUCGAACAGACGUUUAGACGUUUAGAGUCCUC	0.381
UUUAAAUUUGAAAACAUGUUUUAGGGAGUUUAGUUCUAGAAAUUUCUCUUAGAUUGAAGUGACAGAAUCUGAAAGAAAAGAAUAUGAUUGAGCUAUUUGUUUUCCUGAAC	0.964
GGGAAGCCCUCAACUCAUCUCUGAACUUAGAAUCUCAUCCUUAGGGCUCAGAGAGUCCCAGCCCUAAGGGUGUGAACCUCACCUCCUGGGGCUUCCGAGCUACAGGGCUG	0.651
AGUCAUAUGUUGUUUGGCAUUCUGCCUAACCCAGUCUCCCUUCCCAGAGUCAUGGACCUCUCUGUUGCUUUAUGUUGGUCAUGUCCCUGACUGUCCAGAUUUCCUCCCAC	0.652
UUCCUCCUGAGAACUCAUGUUGCUGCCCUGGUUCUUUCUACAGCUCUGGGAUUUAGGGGGAGCCAACUCUUGGCCUUCCUUUGCUCCCUGACUGUCCUUACGUCCUCUCU	0.417
AAAAUUCAGAGAAUCUGUAAAGAACCCCCCACCCCUCAAAAAAGCCUAAGCACUUGCUGUUGUUCUUUUGUGAUUAUGGCUGUACAUUUAGUUGUCUUUCUAGUUAUGAA	0.255
AAACAAUACUUUUUGUAUUAUCUAGAGUCAGCCCACUUCAACAGAUUUUUCUCUCACUAACUGAAAGUGUGUUGAGUCUCUACUUUCUGUCAGUCGUGUAUUAUACUAAG	0.311

Study 4 — technique: RNA Bind-n-Seq; form: RNA; medium: in vitro; tested at: not given; reference: input RNA pool; reading: higher = stronger binding
Target: RING finger protein unkempt homolog, zinc fingers 1-6, GST-SBP tag (UNK, Homo sapiens, UniProt Q9C0B0, residues 30-357)
Chain of UniProt Q9C0B0 (30-357, looked up): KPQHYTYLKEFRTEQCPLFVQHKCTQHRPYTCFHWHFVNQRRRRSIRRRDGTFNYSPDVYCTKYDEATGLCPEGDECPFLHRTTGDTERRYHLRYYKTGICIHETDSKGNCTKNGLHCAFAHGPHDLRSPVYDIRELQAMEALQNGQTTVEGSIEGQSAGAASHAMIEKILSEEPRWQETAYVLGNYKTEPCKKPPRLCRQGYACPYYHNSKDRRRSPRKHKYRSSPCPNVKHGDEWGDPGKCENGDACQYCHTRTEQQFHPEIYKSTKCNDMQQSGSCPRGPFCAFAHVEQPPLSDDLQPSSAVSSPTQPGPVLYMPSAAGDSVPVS
Setting: RNA with constant flanks, human-mouse chimeric sites, ends assumed
All sequences stand within: GGGAGUUCUACAGUCCGACGAUC … CAACAGAGGAUUGAGCAUCA
Sequence	bound/input enrichment
AACAGAUUGUCUUUAAGGUCAACGUAGAAUGCUUGGGGGGUGAUCAUUGUUGCCCAUGUGCCUUCUGACUGAGCUUUAAUGCUGUUCCAUGUUACAUCUUUCCUUCACUCCAGAAUUGUU	0.191 ratio
GGAAGUACAAUGAUGGAGAUUGAUGGUGACAAAGGCAAGCAGGGCGGGCCCACCUACUACAUAGACACCAAUGCCCUGCGUGUUCCGAGGGAGAAUAUGGAGGCCAUCUCACCACUCAAG	0.233 ratio
GCUCUUGGCAAUGUAAUCAGCGCCUUGGGAGACAAGAGCAAGAGAGCCACCCAUGUCCCUUACAGAGACUCUAAGCUGACAAGACUCUUGCAGGAUUCCCUUGGGGGUAACAGCCAAACC	0.107 ratio
CUGGCCUUCUGAGCAUCAGGGGCCUCCUUCUCUGCAUUCACUGCUUCUGCAUCAGAUACUUUCAGCUGCAACUCCCUACUGGGUGGGGCACCCAUUUCAGGCAGAAGGUUUUGGUACCCU	0.172 ratio
AGAGAAAUGAGAAAGAAUCUUACACAAGAAGAGAUGCAAAGAAUGUCUACUAGAGUCCUUUUAGCCACUCUUUCCAUUCCUAUUACUCCUGAGCGUACUGAUAUUGCUCGACUUUUGGAU	0.144 ratio
GUAUACGGUUAUCGAGGAAAGGACUGUAGAGCGAAUGUAUACCUGCUUCCCACAGGGGAGAUAGUUUAUUUUAUCGCCUCAGUGGUAGUACUAUUUAAUUAUGAGGAGAGGACUCAGCGA	2.89 ratio

Excerpt of the above (study 4):
Sequence	bound/input enrichment
AACAGAUUGUCUUUAAGGUCAACGUAGAAUGCUUGGGGGGUGAUCAUUGUUGCCCAUGUGCCUUCUGACUGAGCUUUAAUGCUGUUCCAUGUUACAUCUUUCCUUCACUCCAGAAUUGUU	0.191 ratio
AGAGAAAUGAGAAAGAAUCUUACACAAGAAGAGAUGCAAAGAAUGUCUACUAGAGUCCUUUUAGCCACUCUUUCCAUUCCUAUUACUCCUGAGCGUACUGAUAUUGCUCGACUUUUGGAU	0.144 ratio
GCUCUUGGCAAUGUAAUCAGCGCCUUGGGAGACAAGAGCAAGAGAGCCACCCAUGUCCCUUACAGAGACUCUAAGCUGACAAGACUCUUGCAGGAUUCCCUUGGGGGUAACAGCCAAACC	0.107 ratio
